Published values of several laboratories.
Numbered parts are unrelated; each lists some results of a single study.

Series 1
Target: Prothrombin, mature alpha-thrombin (F2, Homo sapiens, UniProt P00734)
Technique: aptamer microarray, sandwich
Form: DNA with 2'F-ANA
Sample: in vitro
Tested at: 200 nM
Notes: whole 15-mer aptamer, many near background
With: Cy3 exosite-II aptamer, 400 nM
Direction: higher = stronger binding
Oligonucleotide: GGTTGGTGTGGTTGG
Modification	mean fluorescence intensity
2'F-ANA at 1 4 5 6 7 8 9 13 14 15	73.6 a.u.
2'F-ANA at 2 3 4 10 11 13 14 15	166 a.u.
2'F-ANA at 3 6 8 9 11 12 15	1030 a.u.
2'F-ANA at 2 4 6 7 8 9 12 14 15	111 a.u.
2'F-ANA at 3 4 5 6 7 8 10 13 15	64.3 a.u.
2'F-ANA at 1 2 8 9 12 13	309 a.u.
2'F-ANA at 3 4 5 7 11 12 14 15	77.9 a.u.
2'F-ANA at 1 2 3 8 12 13 14	105 a.u.
2'F-ANA at 1 6 9 12	355 a.u.
2'F-ANA at 1 4 6 8 10 11 14	46.9 a.u.
2'F-ANA at 1 3 7 8 9 10 12	125 a.u.
2'F-ANA at 2 4 5 8 10 11 13	48.6 a.u.
2'F-ANA at 3 5 6 7 9 13 14 15	49.3 a.u.
2'F-ANA at 1 2 3 4 6 8 12	398 a.u.
2'F-ANA at 1 6 7 10 15	68.8 a.u.
2'F-ANA at 1 3 4 5 9	60.5 a.u.
2'F-ANA at 2 4 6 7 9 10 15	77.5 a.u.
2'F-ANA at 2 3 4 5 8 15	103 a.u.
2'F-ANA at 3 4 8 10 15	303 a.u.
2'F-ANA at 2 3 10 15	399 a.u.
2'F-ANA at 1 5 7 8 9 11 12 13 14 15	51.1 a.u.
2'F-ANA at 2 3 5 7 8 12 13 14 15	64 a.u.
2'F-ANA at 1 2 3 4 5 6 7 10 11	58.4 a.u.
2'F-ANA at 2 5 10 12 15	128 a.u.
2'F-ANA at 2 4 5 7 9 10 11 12 13 14	56.5 a.u.

Series 2
Target: Histone acetyltransferase KAT6A, winged helix 2, GST fusion (KAT6A, Homo sapiens, UniProt Q92794, residues 85-181)
Technique: protein binding microarray
Form: double-stranded DNA, one strand shown
Sample: in vitro
Tested at: not given
Notes: 8-mer, flanks averaged, mean of 2 arrays, mostly near background
Baseline: not given
Direction: higher = stronger binding
Target sequence (chain): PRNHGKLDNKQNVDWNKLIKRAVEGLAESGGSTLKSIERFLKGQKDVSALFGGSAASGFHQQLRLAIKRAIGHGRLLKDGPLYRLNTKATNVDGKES
Oligonucleotide	E-score
ACCGGTTA	-0.0699
TAACACAA	-0.0675
CAGTCGAA	-0.092
GGCCAAGA	0.0108
ATGTTCGG	0.0352
AGACCCCA	-0.109
GCATTCCC	-0.026
TCGTTCAA	-0.0301
CTGGCTGC	0.0279
CGGTGCGA	0.252
CTTCGGCC	0.119
GGAGCTCC	-0.0385
ATTGACTG	-0.106
CTGACGTA	-0.132
AATTAACG	-0.0392
ATTCGGCA	0.0693
ATGGGTAC	-0.183
CGTGATAG	-0.0136
AATTGAGT	-0.0411
CATCGACC	0.0498
CCGAACGC	0.115
CCAAATAA	-0.0114
CACACCCC	-0.152
GAGCGCCA	-0.0993
GGCGGGTA	0.122

Series 3
Target: Hepatocyte nuclear factor 3-alpha (Foxa1, Mus musculus, UniProt P35582, residues 1-468, full length assumed)
Technique: EMSA with sequencing
Form: double-stranded DNA, one strand shown
Sample: in vitro
Tested at: 10 and 20 nM
Notes: whole designed probe, mean of two concentrations, ends assumed
Baseline: negative control set to 0
Direction: higher = stronger binding
Target sequence (chain): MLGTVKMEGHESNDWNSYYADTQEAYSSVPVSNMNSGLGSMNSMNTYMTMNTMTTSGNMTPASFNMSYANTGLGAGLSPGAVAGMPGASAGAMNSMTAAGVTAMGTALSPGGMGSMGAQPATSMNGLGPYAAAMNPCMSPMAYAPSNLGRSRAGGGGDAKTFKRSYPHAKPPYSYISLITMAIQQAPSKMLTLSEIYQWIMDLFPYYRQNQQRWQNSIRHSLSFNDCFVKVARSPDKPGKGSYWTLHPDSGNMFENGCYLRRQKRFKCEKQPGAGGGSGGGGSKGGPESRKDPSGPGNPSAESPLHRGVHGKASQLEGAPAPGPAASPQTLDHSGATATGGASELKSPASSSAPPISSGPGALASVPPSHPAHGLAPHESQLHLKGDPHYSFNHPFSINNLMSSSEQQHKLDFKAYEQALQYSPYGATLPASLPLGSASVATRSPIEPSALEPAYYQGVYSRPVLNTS
Oligonucleotide	normalised bound fraction [ratio]
GTGAGCGGTGCCCATTGATGGGGAACATCTTCCCCCTCTTCCTTGCCCCACCAGCTCACCTACGGGGGTTATTTGCAGATAGGAAAATAAATAAAGCCGGCATTCGTTAACCCTCTTCTGGCGCAAACTGCTGTTTGCTCTGCATGAATCATGGTCCTTACGCGAGGCGTGGCTCCGGGAGAGCAAAGCACCGTGTCAGGCGCATGATCCGGGCTCGCCTTTCACTGGGATCGTGGGGAC	0.349
GTGAGCGGTGCCCATTGATGGGGAACGGAAGCACTAGAGGTAATATTTCCTTACTGGACCCCAGTCCTAAATTACCTACTTTTATCCAAATTAGGCTTATTTTAAGATATTTCAAAAAGTAATCTTGTAAAATGGTGAAATACACATGTTATGTCTGATGTTAGGCTTTACCTGGATTTTTAATCCCGTAAGACAAGAAATGTGAATATCAGAATGACTTTTCACTGGGATCGTGGGGAC	-0.0721
GTGAGCGGTGCCCATTGATGGGGAACGTGTGTGCGCGCGCGTGTGTGTGTGTTTTCTTAAGCCGGGCTATTCAAACCCTGCTGCAATTCTCCGGTAAACAATGTTACATGGGGCATAATGCAAATAAACGGATTGCAACAATGATTCATCGCGCACTTTGCAGCCGGCCCGGTGGAGCAGCCAGTGCCGGATTTCTCCCTTTTTTTGCAGATCTGCAGATTTCACTGGGATCGTGGGGAC	0.411

Series 4
Target: Interferon regulatory factor 3, full length, phosphomimetic (IRF3, Homo sapiens, UniProt Q14653, residues 1-427, S386D/S396D/S398D/S402D/T404D/S405D)
Technique: protein-binding microarray
Form: double-stranded DNA, one strand shown
Sample: in vitro
Tested at: 2540 nM top
Notes: 60-bp whole probe
With: salmon DNA 0.4 mg/ml
Baseline: random background probes
Direction: higher = stronger binding
All sequences stand within: GCCTAGCAC … GTCTTGATTCGCTTGACGCTGCTG
Residues (chain): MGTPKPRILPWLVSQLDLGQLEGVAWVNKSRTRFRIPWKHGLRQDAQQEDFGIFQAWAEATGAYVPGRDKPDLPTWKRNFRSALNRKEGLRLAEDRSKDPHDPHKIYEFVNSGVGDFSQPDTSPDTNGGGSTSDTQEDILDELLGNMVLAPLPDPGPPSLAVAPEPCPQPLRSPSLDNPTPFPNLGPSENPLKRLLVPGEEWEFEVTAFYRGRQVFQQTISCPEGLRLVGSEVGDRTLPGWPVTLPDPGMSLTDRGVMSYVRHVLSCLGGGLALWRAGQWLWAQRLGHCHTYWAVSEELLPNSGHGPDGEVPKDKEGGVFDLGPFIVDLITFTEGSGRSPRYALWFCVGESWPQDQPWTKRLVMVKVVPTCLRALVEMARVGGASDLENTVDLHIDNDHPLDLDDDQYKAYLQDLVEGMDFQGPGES
Oligonucleotide	fitted relative affinity [z-score]
TTAGGTATCGACTTTCGGATAGTGCTA	1.72
TCAGTGCTCCTTTTAATACTGTGCTAG	2.42
TTAGGTCTCCTTTACCTTTAGTGCTAG	1.92
TACCTTTTCACTTTACACACGTGCTAG	3.14
TACTATATGCATGTAAATAAGTGCTAG	0.226
ACTAGTGTTTTTCTCCTATTGTGCTAG	0.859
TCATCTTTGCAGATAAAACTGTGCTAG	0.735
GACGGTATGCTTATCCTGACGTGCTAG	0.105
TTAGAACTGGGCTTTCGATTAGTGCTA	-0.467
TTTGATATCAGTCTCGATTAGTGCTAG	1.44
ACACTTTCCCCTTCCTAGTTGTGCTAG	4
TCAGCCAGCTCTTTCGTACTGTGCTAG	-0.401

Series 5
Target: RNA binding protein fox-1 homolog 2, RRM domain, GST-SBP tag (RBFOX2, Homo sapiens, UniProt O43251-10, residues 100-194)
Technique: RNA Bind-n-Seq
Form: RNA
Sample: in vitro
Tested at: 365 nM
Notes: natural RNA segment, single round, ends assumed
Baseline: no-protein control
Direction: higher = stronger binding
All sequences stand within: GGGAGUUCUACAGUCCGACGAUC … UGGAAUUCUCGGGUGCCAA
Target sequence (chain): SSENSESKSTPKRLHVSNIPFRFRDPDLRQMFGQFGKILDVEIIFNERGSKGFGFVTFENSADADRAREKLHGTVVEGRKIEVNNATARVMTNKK
Oligonucleotide	RBNS enrichment (R)
CUCUUUCUUUAACCAUUGUAUAUUUUCUUCCAUUCUUGUCAUUGGUCAAUAGGGGAGGGUAGAUUAGCUGCUCCAGAAUUCAAUAAAGUGUAAUAUUUCUAACGGUGACU	0.532
UCAGGUUCUAGGAGGUCCUUUAGGAAGACUCUCAAAGGCAAAUCCCUGAUCCCCCGCCCCACCCUUAGCCCUGCCCUCUCACCAGAGCAAAAUUCACUGGGGACUUUUCC	0.512
GGGACUGUGUAGCCUCUGCCUCCCAGGAUGUUGUCUUUCAUGUGGGAAUUUUGACAGGAUUUCUAGCAAGACAGAUUUCUUCUCGAAAGCUUUUCUUCCUCAGGAGUAUG	1.38
CUGGUGAUGCCUUGUUUGGGGUUCUGUGGGUUUGGGUGGGAAGAGGGCCAUCUGCCUGAAUGUAACCUGCUAGCUCUCCGAAGGCCCUGCGGGCCUGGCUUGUGUGAGCG	1.89
UGAAAUGUUUUUCAAACCAUCCUCUCCUCAGGCCACCACCCCUUACCCUAACCCAUCACGCCCUGGUGAAGCCCCCAAGGCCUGCUGCUUUGGGGUGUGGCCUGUGACUG	0.229
AACCUUCAGUGGAAGCAUGUCAUCAAUUCAUCACAGGCCUUUCCUGUCUUUGAAUUAGAAUCCAGACUAGUGUGGGAAGCAGUCUCUCUGGACUUUGAUUUAGGGAUCAU	4.35
UUUGCUUCCUAGCUGAUGUCAUCCCACAUUGGUACAGGUGUUAUUCAGUACUGGGUGGUUCAGCAGGGAAGCCGGGUGGGACCAGUGUGUCUGUCAUGAAACCACUAACU	0.195
GGAAAGACAUGCCCAAGAGGAAGGAAGUACUGACCAUCGGCUGCCUGUGAGCAGCUUAGCAAGGAGCCCUUGCUCCCUGGGAAAGGCGGUGAACUUGAGUCUAAAGAUGC	0.511

For quick reference, copied from above (series 4):
Oligonucleotide	fitted relative affinity [z-score]
TTAGGTATCGACTTTCGGATAGTGCTA	1.72
TCAGTGCTCCTTTTAATACTGTGCTAG	2.42
TTAGGTCTCCTTTACCTTTAGTGCTAG	1.92
TACCTTTTCACTTTACACACGTGCTAG	3.14
TACTATATGCATGTAAATAAGTGCTAG	0.226
ACTAGTGTTTTTCTCCTATTGTGCTAG	0.859
TCATCTTTGCAGATAAAACTGTGCTAG	0.735
GACGGTATGCTTATCCTGACGTGCTAG	0.105
TTAGAACTGGGCTTTCGATTAGTGCTA	-0.467
TTTGATATCAGTCTCGATTAGTGCTAG	1.44
ACACTTTCCCCTTCCTAGTTGTGCTAG	4
TCAGCCAGCTCTTTCGTACTGTGCTAG	-0.401
